{"data": "Results gathered from unrelated publications", "note": "Each numbered part is a random draw from the data of one study; scales do not carry over between parts."}
{"data": "Study 1", "target": "Interferon regulatory factor 3, full length, phosphomimetic (IRF3, Homo sapiens, UniProt Q14653, residues 1-427, S386D/S396D/S398D/S402D/T404D/S405D)", "method": "protein-binding microarray", "form": "double-stranded DNA, one strand shown", "medium": "in vitro", "tested at": "2540 nM top", "setting": "60-bp whole probe", "with": "salmon DNA 0.4 mg/ml", "baseline": "random background probes", "direction": "higher = stronger binding", "constant ends, left off below": "GCCTAGCAC … GTCTTGATTCGCTTGACGCTGCTG", "UniProt Q14653, sequence (whole entry, unmodified, looked up)": "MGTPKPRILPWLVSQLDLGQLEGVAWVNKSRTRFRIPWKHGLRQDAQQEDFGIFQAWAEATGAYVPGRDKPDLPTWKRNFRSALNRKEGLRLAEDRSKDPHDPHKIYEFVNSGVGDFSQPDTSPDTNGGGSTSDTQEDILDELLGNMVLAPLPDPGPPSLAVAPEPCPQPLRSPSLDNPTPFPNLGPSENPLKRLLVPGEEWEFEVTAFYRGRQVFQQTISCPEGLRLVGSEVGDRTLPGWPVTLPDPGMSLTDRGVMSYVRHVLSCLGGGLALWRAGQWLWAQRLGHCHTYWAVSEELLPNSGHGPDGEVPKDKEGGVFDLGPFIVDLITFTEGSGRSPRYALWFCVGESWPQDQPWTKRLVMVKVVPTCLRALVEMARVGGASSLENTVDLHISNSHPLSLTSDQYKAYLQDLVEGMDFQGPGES"}
{"Strand": "GACGGTCTCCTTATCATGACGTGCTAG", "fitted relative affinity": "2.79 z-score"}
{"Strand": "TCACCTTTCTCAACCTCACTGTGCTAG", "fitted relative affinity": "5.17 z-score"}
{"Strand": "TCAAATCTTGAGTTAGAACTGTGCTAG", "fitted relative affinity": "-0.143 z-score"}
{"Strand": "TTAGATTTCGGGACTGGTTTAGTGCTA", "fitted relative affinity": "1.3 z-score"}
{"Strand": "ACCCCAAAGAGGGGCAGTGTGTGCTAG", "fitted relative affinity": "-0.033 z-score"}
{"Strand": "GACAAACTGAGTCTCGAGACGTGCTAG", "fitted relative affinity": "-0.332 z-score"}
{"Strand": "TCATCTATGTAGTTGATACTGTGCTAG", "fitted relative affinity": "0.418 z-score"}
{"Strand": "GACGTTTTCGACTTTCGGGACGTGCTA", "fitted relative affinity": "2.68 z-score"}
{"Strand": "TTTTGTTGTTTTTTGGTTTCGTGCTAG", "fitted relative affinity": "2.04 z-score"}
{"Strand": "CCTGGACGGGAGTGCGGTGCGTGCTAG", "fitted relative affinity": "-0.718 z-score"}
{"Strand": "TTAGATCTCTGTCTCGATTAGTGCTAG", "fitted relative affinity": "0.194 z-score"}
{"Strand": "GTCGGTATCCTTTTCCTGACGTGCTAG", "fitted relative affinity": "8.42 z-score"}
{"Strand": "GACGGTTTCCTACTGCTGAGGTGCTAG", "fitted relative affinity": "5.48 z-score"}
{"Strand": "GACGGTATCGGTCTCGGGGCGTGCTAG", "fitted relative affinity": "4.62 z-score"}
{"Strand": "TTAGGGCTCCTTCTCCTTTAGTGCTAG", "fitted relative affinity": "2.69 z-score"}
{"Strand": "TCACTTCTGCATTACAGACTGTGCTAG", "fitted relative affinity": "1.23 z-score"}
{"Strand": "GTGGGACCCATGAACACTCAGTGCTAG", "fitted relative affinity": "-0.744 z-score"}
{"Strand": "CAGAAGCCAGAGAGGACAGGGTGCTAG", "fitted relative affinity": "-0.557 z-score"}
{"Strand": "TTTGGACTGGACTATCGGTTAGTGCTA", "fitted relative affinity": "-0.408 z-score"}
{"Strand": "AGCTACTGAGTGGCAACACAGTGCTAG", "fitted relative affinity": "-0.745 z-score"}
{"Strand": "TTAGGTCTCATTCTCCTTTAGTGCTAG", "fitted relative affinity": "2.87 z-score"}
{"Strand": "TTAGGTTTCGGGACTGTGTTAGTGCTA", "fitted relative affinity": "4.33 z-score"}
{"data": "Study 2", "target": "RING finger protein unkempt homolog, zinc fingers 1-6, SBP tag (UNK, Homo sapiens, UniProt Q9C0B0, residues 30-357)", "method": "RNA Bind-n-Seq", "form": "RNA", "medium": "in vitro", "tested at": "100 nM", "setting": "RNA with constant flanks, vertebrate orthologous sites, ends assumed", "baseline": "input RNA pool", "direction": "higher = stronger binding", "constant ends, left off below": "GGGAGUUCUACAGUCCGACGAUC … CAACAGAGGAUUGAGCAUCA", "UniProt Q9C0B0, sequence (30-357, looked up)": "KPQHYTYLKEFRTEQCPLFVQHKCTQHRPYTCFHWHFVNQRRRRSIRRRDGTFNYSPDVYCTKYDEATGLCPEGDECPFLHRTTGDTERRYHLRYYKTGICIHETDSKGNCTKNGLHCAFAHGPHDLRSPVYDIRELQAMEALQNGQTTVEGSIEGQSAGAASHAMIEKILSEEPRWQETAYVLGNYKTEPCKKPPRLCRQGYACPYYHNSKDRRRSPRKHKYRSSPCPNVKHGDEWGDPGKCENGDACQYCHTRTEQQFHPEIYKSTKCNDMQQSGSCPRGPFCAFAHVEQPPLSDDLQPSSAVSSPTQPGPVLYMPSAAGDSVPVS"}
{"Strand": "CAUUACUGUUAAGCACUGUGUUCCAGACCGUGUCUGACUAGUGUAACCUAGGAGAUUUUAUAGUUUUAUUCUAAUGAAAUCCUGAUUGAUGCAGAGCAGUGGGGAGAAUGGUCCCUUUUA", "bound/input enrichment": "1.63 ratio"}
{"Strand": "UAGUGGGUGCAGCAUAGAAACAUCCAAGGUACUGACUGCAGCUUACAUACUUCAUUAGUAUGAAAGUCACAGUUCUCUAUGCGAAGAUACAUAUCUUUAAGUAAAUUACGUCUUUAACUU", "bound/input enrichment": "0.467 ratio"}
{"Strand": "UAGUGCUUAAACCAAGAACCAUUCAAAAAUGCUAUUUAUUUGUUUCUGUAAGUUUGUACAUAAUAUCAACCUCAUUUUUUUUUCAACCUCAUAUUCUUAAAUUUUGAUUUUUAUUUUUUU", "bound/input enrichment": "1.11 ratio"}
{"Strand": "CGAAAGCUUCAGGCACGAGCCCGAGAGUAGAAACGCAGGAUCUUGGUUAUCUUCUUCUAUUAGGAAUAGAUGUACACCUUUGUUCUCCAGGAGGAGAAGAGAAGGAAGAGAUGAAUCUUC", "bound/input enrichment": "0.202 ratio"}
{"Strand": "GGAAAGUUACAGACCAGACUCUGAAAGCAGGAGCACAGGAUCCUGGUUGUCAUCAUCUUUGAGGAACAGAUGUACGCCUCUCUUUUCCAGAAGAAGAAGAGAAGGAAGAGAUGAGUCUGC", "bound/input enrichment": "0.325 ratio"}
{"Strand": "UUUAAUUGUGACCAGAAAUCACCCCACCUCUGACCCAGCAGGAUGAGAACUAGUGUCUUAUUGCUGUUACCUUUCCAGUGGUCAUUUGUCCUGGUCUAGAGCUUGAGGAAACCAUGUGAA", "bound/input enrichment": "0.0862 ratio"}
{"Strand": "AUUGUAGUUUUGUUUUGCAUAAGAGUUUGUAUUAAAGAUCUUCAAAGGGUAAGGGAUACACUAGCAAUGGUCCCAGGUGCCUGGCCUCCAGUGCCCCAUUCGGAGCAAACCUAUCAGGGU", "bound/input enrichment": "0.221 ratio"}
{"Strand": "UAAUUCAAUGGUUGAAGGCUCAGAACUCAAGAAGGUUCGCUCCAACUCUAGAAUUUACCACCGAUAUUUUCUCUUAGAUGCUGAUAUGCAGUCUCUGAGAUGGGAACCAUCCAAGAAGGA", "bound/input enrichment": "0.269 ratio"}
{"Strand": "CAUUGUAUCCUGCUGUAUAAUAAACAUUCUUACGCAUUUAUCAAAUGUUGAUAAAAUGUUAGCCCUUAACCACUUUUAUAUGUUUUAAAUUUUUGAAAUUCAAGUGUAUCUUCCAUAACA", "bound/input enrichment": "0.624 ratio"}
{"Strand": "CUAGUCUUCCACUUAGGGUAAGCCUCAAAUCUAUAGGACUUAUGACAAUUGUAUACCUACCUAGGUUGAGUUUAAUAUUUUUUUAUUGGCCUGUAAAUAGGGAUGACACCUUCUAUAAUA", "bound/input enrichment": "0.616 ratio"}
{"Strand": "GUGAGGGUCUACUGACCACUCACUAUUAUGUCUGGUAUCUGUAAACACUCUUUUUGUUCUUAGUCUUUCUCUUGUAUAAUUGAUGUCCUUUAAAAUUGUUAAUGUAUAACAGGGCUUAUA", "bound/input enrichment": "0.974 ratio"}
{"data": "Study 3", "target": "RNA binding protein fox-1 homolog 2, RRM domain, GST-SBP tag (RBFOX2, Homo sapiens, UniProt O43251-10, residues 100-194)", "method": "RNA Bind-n-Seq", "form": "RNA", "medium": "in vitro", "tested at": "365 nM", "setting": "natural RNA segment, single round, ends assumed", "baseline": "no-protein control", "direction": "higher = stronger binding", "constant ends, left off below": "GGGAGUUCUACAGUCCGACGAUC … UGGAAUUCUCGGGUGCCAA", "Target sequence (chain)": "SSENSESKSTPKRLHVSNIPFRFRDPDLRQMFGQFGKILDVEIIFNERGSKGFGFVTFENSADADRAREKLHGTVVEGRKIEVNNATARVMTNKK"}
{"Strand": "CAGUGCAAGCUACGGACCACAGUUAGGCUGCCUCACCUCUCAGGCGGCCAGCAGCAGCUCUGCUCAGUCUUUAUUCCCACACCAAAGGGCGAGCAGGUGUGACAUUGGCU", "RBNS enrichment (R)": 0.438}
{"Strand": "CACCUGAGGCCAGCUCUGGUCAGUCUCUGAUGGUCCAUUGGGCUGGCUCAGCACAUUGACAUCACUAACUAGGGUUGGGAUAGCUUCCUACCCAGAUGACCAAAAAGCCA", "RBNS enrichment (R)": 0.256}
{"Strand": "ACAUCUGCCUGAUUCUUGCCAACACGAGGGGUGGAAAUGGGAGAAAAAGCUUUUAGUUGCUAAUUUGUUUCCGCUGAGCCAAGUGUUUGAGAAACCUGGACUAGAGCUUA", "RBNS enrichment (R)": 0.656}
{"Strand": "CUACUUCUGUGUCUGUGCUAUGUGGGGGUGCAACUUCUGCCUGGUGGUUUGUGACAUGGCAGAUCAGAAGUGCCUCCUUGUAGGUUCAUUGGUCUCUGGAAUAAGUGCCA", "RBNS enrichment (R)": 15.9}
{"Strand": "AAAAAGUUGUCUUGUUGUAUUUUUGAUGCUGGCACAAGGUUCUUGUCCACUUUGGUUUUUCUUAUCUCUGUAUGUAAGAAAUUCUGUUUGUUGUUUACUAUGGAAUUAGU", "RBNS enrichment (R)": 18.7}
{"Strand": "GGCAGCACAGGACCACUUCAUGGCUGUCUAGUUAUGGUCCCUGGAGGGCUAUUUGCCCACCUUCACUCUCCCUGCCUUCCCUUCUGAGUUGUGGUAGAGCAAAGACCCAC", "RBNS enrichment (R)": 0.342}
{"Strand": "UAUUUGAAGAACAAUGCAAAAUGAGGCUUUCAUUGAAGGGAGAAAAGAGAAAAAAAGAAAAAAAAAACCUGUCUCUGUUCUUUUUUUCUCUCUCUCAUUAAGAAGCAAAA", "RBNS enrichment (R)": 0.968}
{"Strand": "CUGUAUGUUGGAUGACUUUAAUGCUACAUUUUAAAAAAAGAAAAUAAAGUAAUAAUAUAACUCAAAAUGGUUUUUGUGGUUUCUAAAUCUUUGAAAGCAGUGGCAUCAUG", "RBNS enrichment (R)": 0.728}
{"Strand": "GAGCAGAUCAUAGUAUAUGAGAUAGGAAUUCCCAUCCUAUUUGAGUUGAACUCUCUUCUGUACCUCUGUGCUCUGUGUCUGUGCAUGAAGGCUCAGUCUUUAGAGGCACU", "RBNS enrichment (R)": 13.7}
{"Strand": "AAUGCCCCAAACUUUCUCAUAAGCACCUAAAACCCAAAGGUGGCAGCUUGUGAAGAUUGGGGACACUCAUAUUGCCCUAAUUAAAAACUGUGAUUUUUAUCACAAGGGAG", "RBNS enrichment (R)": 0.262}
{"Strand": "AGGAGGUGGGGAGCAAAGAGGGCAGCCUGACUAGAUGCCCCUGCUGAAUCUGGUACUUUCUGCACAGCCUUGAGUGAUUGGAGUCCCCUAAUGACUAAUAAACUUGAACA", "RBNS enrichment (R)": 0.87}
{"Strand": "GGUUGCAGCUGCCAUGCUCAGAAUGCGUUUUGAGAGCUGAAGCAAGGUGCUUGCAGUCACCUGAGGCCGUCCGUGUGGCCCAGGGCCCCAGCUGCCUUUAGGGCCCCCAU", "RBNS enrichment (R)": 0.446}
{"data": "Study 4", "target": "PABPC1L2, full length, GST fusion (mouse, UniProt A0ABA7IW68)", "method": "RNAcompete", "form": "RNA", "medium": "in vitro", "tested at": "20 nM", "setting": "7-mer, probes averaged, single round", "baseline": "mean of 7-mers", "direction": "higher = stronger binding", "Construct (chain)": "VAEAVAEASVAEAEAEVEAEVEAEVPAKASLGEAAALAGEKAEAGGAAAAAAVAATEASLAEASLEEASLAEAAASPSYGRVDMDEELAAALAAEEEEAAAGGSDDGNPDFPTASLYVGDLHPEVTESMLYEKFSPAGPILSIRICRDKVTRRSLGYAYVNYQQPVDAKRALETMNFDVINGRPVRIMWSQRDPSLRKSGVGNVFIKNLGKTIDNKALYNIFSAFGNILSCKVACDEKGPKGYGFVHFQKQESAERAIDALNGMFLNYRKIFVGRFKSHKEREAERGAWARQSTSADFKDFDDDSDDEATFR"}
{"Strand": "GUCAUUU", "7-mer Z-score": -0.246}
{"Strand": "ACUCACC", "7-mer Z-score": -0.0718}
{"Strand": "GGCUCUU", "7-mer Z-score": -0.257}
{"Strand": "CCACCUU", "7-mer Z-score": -0.253}
{"Strand": "AAUAUAC", "7-mer Z-score": 0.379}
{"Strand": "UAGCAAC", "7-mer Z-score": -0.0953}
{"Strand": "CGCCCUU", "7-mer Z-score": -0.441}
{"Strand": "GUGUCAU", "7-mer Z-score": -0.251}
{"Strand": "CUGUUGG", "7-mer Z-score": -0.427}
{"Strand": "CCUGACU", "7-mer Z-score": -0.364}
{"Strand": "GACGUCG", "7-mer Z-score": -0.235}
{"Strand": "AUCCUAA", "7-mer Z-score": -0.103}
{"Strand": "AAUGGAU", "7-mer Z-score": 0.341}
{"Strand": "GGCUUGC", "7-mer Z-score": -0.139}
{"Strand": "GCCUAGC", "7-mer Z-score": -0.271}
{"Strand": "GGAAAAU", "7-mer Z-score": 2.34}
{"Strand": "ACUUUCU", "7-mer Z-score": -0.286}
{"Strand": "GCUUUUC", "7-mer Z-score": -0.318}
{"Strand": "AGUAGCG", "7-mer Z-score": -0.13}
{"Strand": "CGACUUC", "7-mer Z-score": -0.202}
{"Strand": "CGGAUUU", "7-mer Z-score": -0.0264}
{"Strand": "CUAUGCA", "7-mer Z-score": -0.101}
{"Strand": "AUUGGCA", "7-mer Z-score": 0.162}
{"note": "Some of these lines once more (study 4):"}
{"Strand": "GGCUCUU", "7-mer Z-score": -0.257}
{"Strand": "GACGUCG", "7-mer Z-score": -0.235}
{"Strand": "GCUUUUC", "7-mer Z-score": -0.318}
{"Strand": "GCCUAGC", "7-mer Z-score": -0.271}
{"Strand": "CCACCUU", "7-mer Z-score": -0.253}
{"Strand": "CGACUUC", "7-mer Z-score": -0.202}
